Assay results of several laboratories.
Lines come from different studies, so protocols differ. Numbers after ± are the reported error.

| Compound | test | system | setting | scale | quantity | result |
| --- | --- | --- | --- | --- | --- | --- |
| Cc1[nH]c(=O)c(CNC(=O)c2ccc([N+](=O)[O-])o2)c2c1CCCC2 | U-HPLC | 20% DMSO in water | – | – | kinetic solubility | 204 µg/mL |
| Nc1cc[nH]c(=O)n1 | UHPLC-MS | male CD-1 mice, plasma | intravenous, 1 mg/kg, from 4 h postdose | – | terminal half-life | 0.846 days |
| CCCOc1ccc([C@H]2CNC(=O)N2c2ccc3[nH]cnc3c2)cc1 | – | human, plasma | oral, 30 mg, single dose, fasted | – | AUC(0-inf) | 174 ng·h/mL |
| O=C1CCc2ccc(OCCCCN3CCN(c4cccc(Cl)c4Cl)CC3)cc2N1 | – | healthy Japanese men, CYP2D6 EM, plasma | oral, 3 mg aripiprazole single, together with: fluvoxamine 100 mg/day | – | terminal half-life | 4.56 ± 0.596 days |
| O=C(/C=C/c1cccc(S(=O)(=O)Nc2ccccc2)c1)NO | – | human, normal liver function | intravenous, 400 mg/m^2, 30 min infusion, single dose, mean | – | volume of distribution (Vss) | 30.1 L/m² |
| CC[C@H](C)[C@H](NC(=O)[C@H](Cc1ccccc1)NC(=O)[C@H](CCC(=O)O)NC(=O)[C@H](CCCCNC(=O)COCCOCCNC(=O)COCCOCCNC(=O)CC[C@H](NC(=O)CCCCCCCCCCCCCCCCC(=O)O)C(=O)O)NC(=O)[C@H](C)NC(=O)[C@H](C)NC(=O)[C@H](CCC(N)=O)NC(=O)CNC(=O)[C@H](CCC(=O)O)NC(=O)[C@H](CC(C)C)NC(=O)[C@H](Cc1ccc(O)cc1)NC(=O)[C@H](CO)NC(=O)[C@H](CO)NC(=O)[C@@H](NC(=O)[C@H](CC(=O)O)NC(=O)[C@H](CO)NC(=O)[C@@H](NC(=O)[C@H](Cc1ccccc1)NC(=O)[C@@H](NC(=O)CNC(=O)[C@H](CCC(=O)O)NC(=O)C(C)(C)NC(=O)[C@@H](N)Cc1cnc[nH]1)[C@@H](C)O)[C@@H](C)O)C(C)C)C(=O)N[C@@H](C)C(=O)N[C@@H](Cc1c[nH]c2ccccc12)C(=O)N[C@@H](CC(C)C)C(=O)N[C@H](C(=O)N[C@@H](CCCNC(=N)N)C(=O)NCC(=O)N[C@@H](CCCNC(=N)N)C(=O)NCC(=O)O)C(C)C | – | human lowest body weight | 1.0 mg once weekly, 39.7-60.2 kg | – | average steady-state concentration | 43.6 nmol/L |
| Cc1cccc(C)c1OCC(=O)N[C@@H](Cc1ccccc1)[C@@H](O)C[C@H](Cc1ccccc1)NC(=O)[C@H](C(C)C)N1CCCNC1=O | modified PAMPA Franz cell | phosphate buffer with HPMCAS | stock 20 mg/mL, 3 h, 25 °C, 839 nm particles, 300 rpm, together with: 3% BSA receiver | – | particle permeability | 1.6 ± 0.1 ×10⁻⁶ cm/s |
| COc1ccc(-c2cc(=O)c3c(OC)c(OC)c(OC)cc3o2)cc1OC | – | C57BL/6 mouse, male, small intestine | oral, 1% w/w in diet, 6 weeks, orange peel extract diet | relative to: content in orange peel | tissue to peel content ratio | 4.61% |
| O=C1N=C(N2CCOCC2)CN1c1ccc(Cl)cc1 | item: total radioactivity | beagle dog, male | oral, 20 mg/kg, 0 to 264 h | relative to: dose | fraction excreted in faeces | 78% |
| CCCC[C@@H]1NC(=O)[C@@H](NC(=O)[C@H](CCC(=O)O)NC(=O)CNC(=O)CN2CCN(CC(=O)O)CCN(CC(=O)O)CCN(CC(=O)O)CC2)CCCCNC(=O)C[C@@H](C(N)=O)NC(=O)[C@H](C(C)C)NC(=O)[C@@H]2CCCN2C(=O)[C@H](CCCNC(=N)N)NC(=O)CNC(=O)[C@H](Cc2c[nH]c3ccccc23)NC(=O)[C@H](CCCNC(=N)N)NC(=O)[C@@H](Cc2ccccc2)NC(=O)[C@H](Cc2c[nH]cn2)NC(=O)[C@H](CCC(=O)O)NC1=O [indium-111 labelled] | – | normal C57 mice, muscle | intravenous, 0.037 MBq, 24 h | – | tissue uptake | 0.02 ± 0.01 %ID/g |
| CCn1cc(-c2nc(C)no2)c(=O)c2cc(F)c(N3CCC(C)CC3)cc21 | – | FaSSIF | 2 h, pH 6.5, 25 °C | – | kinetic solubility | 1.5 µM |
| C[C@]12CC[C@@H]3c4ccc(O)cc4CC[C@H]3[C@@H]1C[C@@H](O)[C@@H]2O | GC-MS | breast cancer women on NSAI, serum | vaginal, 0.03 mg daily, 0.5 h, day 28 | – | mean serum concentration | 1.58 pg/mL |
| CCCSc1nc(N[C@@H]2C[C@H]2c2ccc(F)c(F)c2)c2nnn([C@@H]3C[C@H](OCCO)[C@@H](O)[C@H]3O)c2n1 | – | Wistar Han rat, female, plasma | oral, 20 mg/kg/day, day 1, carcinogenicity study | – | AUC | 21.1 µM·h |
| CC(C)=CCC[C@](C)(O[C@@H]1O[C@H](CO)[C@@H](O)[C@H](O)[C@H]1O)[C@H]1CC[C@]2(C)[C@@H]1[C@H](O)C[C@@H]1[C@@]3(C)CC[C@H](O[C@@H]4O[C@H](CO)[C@@H](O)[C@H](O)[C@H]4O[C@@H]4O[C@H](CO)[C@@H](O)[C@H](O)[C@H]4O)C(C)(C)[C@@H]3CC[C@]12C | – | Sprague-Dawley rat, plasma | oral, 2000 mg/kg ginseng extract, diet with NUTRIOSE 5% for 2 weeks | – | AUC | 12300 ± 7060 ng·h/mL |
| CCc1ccc(Cc2ccc3c(c2)[C@]2(OC3)O[C@H](CO)[C@@H](O)[C@H](O)[C@H]2O)cc1 | – | Wistar rat, male, kidney | oral, dose not given, 24 h | relative to: kidney over plasma concentration | tissue/plasma ratio | 201 ± 42.9 |
| CNCc1ccc(-c2[nH]c3cc(F)cc4c3c2CCNC4=O)cc1 | – | human patients, plasma | oral, 300 mg once daily, day 1, single dose, arithmetic mean | – | Cmax | 629 ng/mL |
| CC(C)C[C@H](NC(=O)[C@H](CC(C)C)NC(=O)[C@@H](Cc1c[nH]c2ccccc12)NC(=O)[C@@H](NC(=O)[C@@H](Cc1c[nH]c2ccccc12)NC(=O)[C@@H](N)CCCCN)[C@H](c1ccccc1)c1c[nH]c2ccccc12)C(N)=O | RP-HPLC Jupiter Proteo | – | acetonitrile/water TFA gradient | – | HPLC retention | 58 %B |
| CS(=O)(=O)n1cc2c(n1)CN([C@@H]1C[C@H](N)[C@@H](c3cc(F)ccc3F)O[C@@H]1C(F)(F)F)C2 | – | human, plasma | oral, 50 mg, 1008 h after first dose, multiple dose | – | Ctrough | 26.6 ± 13.1 ng/mL |
| CCCC[C@H](NC(C)=O)C(=O)N[C@H]1CCC(=O)NC[C@@H](C(=O)N[C@@H](Cc2c[nH]c3ccccc23)C(N)=O)NC(=O)[C@H](CCCNC(=N)N)NC(=O)[C@@H](Cc2ccccc2)NC(=O)[C@H](Cc2c[nH]cn2)NC1=O | – | beagle dog, male, plasma | subcutaneous, 40.0 mg/kg daily, day 14 | – | Cmax | 850 ng/mL |
| COC(=O)[C@H]1[C@H]2C[C@@H]3c4[nH]c5cc(OC)ccc5c4CCN3C[C@H]2C[C@@H](OC(=O)c2cc(OC)c(OC)c(OC)c2)[C@@H]1OC | turbidimetry | PBS | 2 h, 1% DMSO | – | kinetic solubility | 19.1 µg/mL |
| NC(N)=O | in vitro haemodialysis | buffered aqueous solution | concentration not given, blood 50, dialysate 250 mL/min | – | dialysis clearance | 50 mL/min |
| COc1cc(OC)c(/C=C/S(=O)(=O)Cc2ccc(OC)c(NCC(=O)O)c2)c(OC)c1 | – | cancer patients, phase I, plasma | oral, 280 mg twice daily, day 1 cycle 1 | – | Vss/F | 498 ± 469 L |
| Cc1nc2cccc(OCC(C)(C)C(=O)NC(C)C)c2c(N)c1C(=O)O | – | female Sprague-Dawley rat, plasma | oral gavage, 30 mg/kg, day 1 | – | Tmax | 25.2 min |
| CN1CC[C@@H](NC(=O)Nc2ccc(C#N)cc2)C[C@@H]1c1nc2ccccc2[nH]1 | – | human, severe hepatic impairment, plasma | oral, 100 mg, single dose, fasted | – | unbound Cmax | 73.3 ± 36.8 ng/mL |
| O=C(O)[C@H](c1ccccc1Cl)N1CCc2sccc2C1 | HPLC-MS/MS | feline EDTA plasma | 24 h, -20 °C, storage stability | – | deviation from nominal | -1% |
| CC(=O)N[C@H](CCNC(=O)c1cc(NC(=O)c2cc(NC(=O)c3cc(NC(=O)c4nccn4C)cn3C)cn2C)cn1C)C(=O)Nc1cn(C)c(C(=O)Nc2cc(C(=O)Nc3cc(C(=O)Nc4cc(C(=O)NCCCN(C)CCCN[14C](=O)c5cccc([14C](=O)O)c5)n(C)c4)n(C)c3)n(C)c2)n1 | radiolabel counting | NSG male mouse, LNCaP xenograft, liver | intraperitoneal, 20 nmol per animal, 24 h | – | tissue concentration | 1.04 mg/kg |
| O=C(O)CNC(=O)c1cccc(O)c1 | untargeted mass spectrometry | human normal subjects, plasma ultrafiltrate | – | – | unbound fraction in plasma | 35 ± 6% |
| CC(C)C[C@H](NC(=O)CNC(=O)c1cc(Cl)ccc1Cl)B(O)O | rapid equilibrium dialysis | moderate hepatic impairment patients, plasma | 3 h | – | unbound fraction | 0.0093 ± 0.0037 |

Repeated from above:
| Compound | test | system | setting | scale | quantity | result |
| --- | --- | --- | --- | --- | --- | --- |
| CC(C)C[C@H](NC(=O)[C@H](CC(C)C)NC(=O)[C@@H](Cc1c[nH]c2ccccc12)NC(=O)[C@@H](NC(=O)[C@@H](Cc1c[nH]c2ccccc12)NC(=O)[C@@H](N)CCCCN)[C@H](c1ccccc1)c1c[nH]c2ccccc12)C(N)=O | RP-HPLC Jupiter Proteo | – | acetonitrile/water TFA gradient | – | HPLC retention | 58 %B |
| CCn1cc(-c2nc(C)no2)c(=O)c2cc(F)c(N3CCC(C)CC3)cc21 | – | FaSSIF | 2 h, pH 6.5, 25 °C | – | kinetic solubility | 1.5 µM |
| CNCc1ccc(-c2[nH]c3cc(F)cc4c3c2CCNC4=O)cc1 | – | human patients, plasma | oral, 300 mg once daily, day 1, single dose, arithmetic mean | – | Cmax | 629 ng/mL |
